Experimental data pooled from the literature.
Each numbered part is a random draw from the data of one study; scales do not carry over between parts.

Set 1 — technique: RNA Bind-n-Seq; molecule type: RNA; sample: in vitro; tested at: 20 nM; setting: 6-mer, flanks averaged, single round; together with: 150 mM LiCl; relative to: input library; direction: higher = stronger binding
Target: TAR DNA-binding protein 43, full length, His tag (TARDBP, Homo sapiens, UniProt Q13148, residues 1-414)
Oligonucleotide	6-mer enrichment (R)
AUUCGU	0.909
GUCAUG	0.976
UGCGCU	0.971
AGCCUC	0.879
GAACGC	0.86
ACAAUA	1.04
GAUAGC	0.878
AAAUUG	0.962

Set 2 — technique: RNA Bind-n-Seq; molecule type: RNA; sample: in vitro; tested at: 200 nM; setting: whole 134-nt RNA, ends assumed; together with: 150 mM KCl; relative to: input library; direction: higher = stronger binding
Target: Ras GTPase-activating protein-binding protein 1, full length (G3BP1, Homo sapiens, UniProt Q13283)
UniProt Q13283, sequence (whole entry, looked up): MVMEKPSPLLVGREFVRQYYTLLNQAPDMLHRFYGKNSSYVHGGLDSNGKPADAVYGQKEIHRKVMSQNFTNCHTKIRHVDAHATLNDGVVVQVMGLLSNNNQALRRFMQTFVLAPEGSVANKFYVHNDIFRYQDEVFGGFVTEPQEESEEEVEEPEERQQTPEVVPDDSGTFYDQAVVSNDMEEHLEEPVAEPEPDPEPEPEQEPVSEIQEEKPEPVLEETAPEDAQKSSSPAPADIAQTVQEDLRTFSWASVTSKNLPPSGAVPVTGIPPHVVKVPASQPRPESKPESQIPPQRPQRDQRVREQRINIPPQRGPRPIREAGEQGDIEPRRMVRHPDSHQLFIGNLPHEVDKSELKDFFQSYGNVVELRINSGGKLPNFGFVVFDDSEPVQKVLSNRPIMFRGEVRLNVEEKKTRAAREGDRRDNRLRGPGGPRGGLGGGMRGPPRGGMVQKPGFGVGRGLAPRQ
All sequences stand within: GGGAGUUCUACAGUCCGACGAUC … UGGAAUUCUCGGGUGUCAAGG
Oligonucleotide	log2 enrichment
CUCAAGUCCUGUGCUACACAUCGUAUGUACCGAAUCGGAAAAAGGAAAGGUGGAAAGUAUUAUGUUACGCCGUUCGGAUCUGCACUUCCA	-0.759
CUCAAGUCCUGUGCUACACAUCGUAUGUACCGAAUCGGGCCGGGCCGGGGCCGGAAAGUAUUAUGUUACGCCGUUCGGAUCUGCACUUCC	-0.303
GUCCUGUGCUACACAUCGUAUGUACCGAAUCGGGUGGGAAAAAAAGGGAAAAAAAGGGAAAGUAUUAUGUUACGCCGUUCGGAUCUGCAC	-0.192
UCAAGUCCUGUGCUACACAUCGUAUGUACCGAAUCGGGUUUGGGGUUUGGUUUGGAAAGUAUUAUGUUACGCCGUUCGGAUCUGCACUUC	-0.353
AGUCCUGUGCUACACAUCGUAUGUACCGAAUCGGUUUUUGGAAAAAAAGGUUUUUGGAAAGUAUUAUGUUACGCCGUUCGGAUCUGCACU	-1.66
GUCCUGUGCUACACAUCGUAUGUACCGAAUCGGGUUUUUUUGGGUUUGGGAAAAAGGGAAAGUAUUAUGUUACGCCGUUCGGAUCUGCAC	-0.486
AGUCCUGUGCUACACAUCGUAUGUACCGAAUCGGGGUUUGGGGUUUUUGGGGUGGGGAAAGUAUUAUGUUACGCCGUUCGGAUCUGCACU	0.628
CUCAAGUCCUGUGCUACACAUCGUAUGUACCGAAUCGGGAAGGGGAAGGAAGGAAAGUAUUAUGUUACGCCGUUCGGAUCUGCACUUCCA	-0.281

Set 3 — technique: protein-binding microarray; molecule type: double-stranded DNA, one strand shown; sample: in vitro; tested at: not given; direction: higher = stronger binding
Target: Myc proto-oncogene protein, bHLH-zipper, MAX partner unstated (MYC, Homo sapiens, UniProt P01106, residues 368-449)
UniProt P01106, sequence (368-449, looked up): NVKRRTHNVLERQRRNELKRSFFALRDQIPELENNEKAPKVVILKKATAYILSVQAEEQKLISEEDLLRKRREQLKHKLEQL
Setting: k-mer, scored over probes, only values ≥0.25
Oligonucleotide	E-score
CGCATTGC	0.326
ATGTGCCC	0.356
GCCACCCC	0.343
CATATGCC	0.321
CGTGTTTA	0.377
CGTGCCCC	0.383
CCACACCA	0.319
GTCGTGCA	0.259

Further values, each from its own experiment
Sequence	target	assay	test system	conditions	quantity	value
MAMTGLPQA	HLA class I histocompatibility antigen, A alpha chain, allele A*25:01 (Homo sapiens, UniProt P04439)	peptide-MHC binding	peptide	concentration not given	binding	inactive

Excerpt of the above (set 1):
Oligonucleotide	6-mer enrichment (R)
AUUCGU	0.909
GUCAUG	0.976
UGCGCU	0.971
